Experimental data pooled from the literature.
Compare with care: the assays were run in different laboratories.
Organism: Pseudomonas aeruginosa

CC(C)=CCc1cc([C@@H]2CC(=O)c3ccc(O)c(CC=C(C)C)c3O2)c(O)c(CC=C(C)C)c1O  MIC (ATCC 10145): 128 µg/mL
CC(C)C[C@H](NC(=O)[C@H](CC(N)=O)NC(=O)[C@H](CCCNC(=N)N)NC(=O)[C@@H](CC(C)C)NC(=O)[C@H](Cc1ccc(-c2ccccc2)cc1)NC(=O)[C@H](CC(=O)O)NC(=O)[C@H](CCCCN)NC(=O)[C@@H](CC(C)C)NC(=O)[C@H](CCCNC(=N)N)NC(=O)[C@H](CCC(N)=O)NC(=O)[C@@H](NC(=O)[C@@H](CC(C)C)NC(=O)[C@H](CCCNC(=N)N)NC(=O)[C@H](CCCCN)NC(=O)[C@H](Cc1ccc(-c2ccccc2)cc1)NC(=O)CN)C(C)C)C(=O)N[C@H](C(N)=O)C(C)C  MIC (broth microdilution; PAO1): 6.2 µM
COc1ccc2ccc3c(c2c1)C=[N+]1C2CCCCC2[N+]2=Cc4c(OC)cccc4[O][Au-]21[O]3.F[P-](F)(F)(F)(F)F (stereo not drawn)  MIC (bacterial growth, broth microdilution; carbapenem-resistant clinical isolate; 24 h): 20 µM
NCC1OC(OC2C(N)CC(N)C(OC3OC(CO)C(O)C(N)C3O)C2OCCCCn2cc(CNc3nc(NCc4cn(CCCCOC5C(OC6OC(CN)C(O)CC6N)C(N)CC(N)C5OC5OC(CO)C(O)C(N)C5O)nn4)nc(NCc4cn(CCCCOC5C(OC6OC(CN)C(O)CC6N)C(N)CC(N)C5OC5OC(CO)C(O)C(N)C5O)nn4)n3)nn2)C(N)CC1O (stereo not drawn)  MIC (microbial growth, broth dilution; PAO1): > 128 µg/mL
COc1ccc2ccc3c(c2c1)C=[N+]1C2CCCCC2[N+]2=Cc4ccccc4[O][Au-]21[O]3.F[P-](F)(F)(F)(F)F (stereo not drawn)  MIC (bacterial growth, broth microdilution; carbapenem-resistant; 24 h): 20 µM
CC(CCCOC(=O)CCC[N+](C)(C)C)C1CCC2C3CCC4CC(OC(=O)CCC[N+](C)(C)C)CCC4(C)C3CCC12C (stereo not drawn)  MIC (microbial growth, broth dilution; ATCC27853; 16 h): 62.5 µg/mL
COc1c(NC(=O)c2ccc(NC(=O)c3ccc(NC(=O)[C@H](CC#N)NC(=O)c4ccc(NC(=O)/C(C)=C/c5ccc(O)cc5)cc4)cc3)c(OC)c2O)ccc(C(=O)O)c1O  MIC (DSM 46316 ESBL 2): 16 µg/mL
CC[C@@H](C)[C@@H](NC(=O)[C@@H](C)NC(=O)[C@@H](CCCCN)NC(=O)[C@@H](CC(C)C)NC(=O)[C@@H](CC(C)C)NC(=O)[C@H](NC(=O)[C@@H](CCCCN)NC(=O)[C@@H](CC(C)C)NC(=O)[C@@H](C)NC(=O)[C@@H](CCCCN)NC(=O)[C@@H](CCCCN)NC(=O)[C@@H](CCCCN)NC(=O)[C@@H](C)NC(=O)[C@@H](CCCCN)NC(=O)[C@@H](CO)NC(=O)[C@@H](Cc1ccccc1)NC(=O)[C@H](NC(=O)[C@@H](CCCCN)NC(=O)[C@@H](CC(C)C)NC(=O)[C@@H](Cc1ccccc1)NC(=O)[C@@H](CO)NC(=O)[C@@H](CCCCN)NC(=O)[C@@H](Cc1c[nH]c2ccccc12)NC(=O)[C@@H](CCCCN)NC(C)=O)[C@H](C)O)[C@H](C)O)C(=O)N[C@H](CO)C(=O)N[C@H](CCCCN)C(N)=O  MIC (broth microdilution; PAK; 24 h, 37 °C): 1.3 µM
CN1/C(=C/C=C/c2cc(-c3ccccc3)cc(-c3ccccc3)[o+]2)C(C)(C)c2ccccc21  MIC (microbial growth, broth dilution; ATCC27853): ≥ 64 µg/mL

Excerpt of the above:
COc1ccc2ccc3c(c2c1)C=[N+]1C2CCCCC2[N+]2=Cc4ccccc4[O][Au-]21[O]3.F[P-](F)(F)(F)(F)F (stereo not drawn)  MIC (bacterial growth, broth microdilution; carbapenem-resistant; 24 h): 20 µM
